# Measured values of several laboratories.
# Compare with care: the assays were run in different laboratories.
SMILES,organism,test,test system,conditions,MIC
CC1(C)SC2C(NC(=O)C(NC(=O)C3=C(O)C4(CC4)NC3=O)c3ccccc3)C(=O)N2C1C(=O)O (stereo not drawn),Escherichia coli,broth microdilution,Keio mutant JW5195-1,18 h,50 µg/mL
CCCCCCCCCC(=O)N[C@@H](Cc1c[nH]c2ccccc12)C(=O)N[C@H](CC(N)=O)C(=O)N[C@@H](CC(=O)O)C(=O)N[C@@H]1C(=O)NCC(=O)N[C@@H](CCCN)C(=O)N[C@@H](CC(=O)O)C(=O)N[C@H](C)C(=O)N[C@@H](CC(=O)O)C(=O)NCC(=O)N[C@H](CO)C(=O)N[C@@H]([C@H](C)CC(=O)O)C(=O)N[C@@H](CC(=O)c2ccccc2N)C(=O)O[C@@H]1C,Salmonella enterica serovar Typhimurium,broth dilution,SL1344,,inactive
CC[C@H](C)[C@H](NC(=O)CN)C(=O)NCC(=O)N[C@@H](CCCCN)C(=O)N[C@@H](Cc1ccccc1)C(=O)N[C@@H](CC(C)C)C(=O)N[C@@H](CCCCN)C(=O)N[C@@H](CCCCN)C(=O)N[C@@H](C)C(=O)N[C@@H](CCCCN)C(=O)N[C@@H](CCCCN)C(=O)N[C@@H](Cc1ccccc1)C(=O)NCC(=O)N[C@@H](CCCCN)C(=O)N[C@@H](C)C(=O)N[C@@H](Cc1ccccc1)C(=O)N[C@H](C(=O)N[C@@H](CCCCN)C(=O)N[C@H](C(=O)N[C@@H](CC(C)C)C(=O)N[C@@H](CCCCN)C(=O)N[C@@H](CCCCN)C(N)=O)[C@@H](C)CC)C(C)C,Enterobacter sp.,broth dilution,KCTC 2625,,< 3.1 µM
N=C(N)NCCC[C@H](NC(=O)[C@H](Cc1c[nH]c2ccccc12)NC(=O)[C@H](CCCNC(=N)N)NC(=O)[C@H](Cc1c[nH]c2ccccc12)NC(=O)[C@H](Cc1c[nH]c2ccccc12)NC(=O)[C@H](Cc1c[nH]c2ccccc12)NC(=O)[C@H](CCCNC(=N)N)NC(=O)[C@H](Cc1c[nH]c2ccccc12)NC(=O)[C@@H](N)CCCNC(=N)N)C(=O)N[C@@H](Cc1ccccc1)C(N)=O,Candida albicans,broth microdilution,"14936, RPMI 1640-MOPS","48 h, 30 °C",8 µM
N=C(N)NCCC[C@H](NC(=O)CCCCCNC(=O)[C@H](CCCNC(=N)N)NC(=O)[C@H](CCCNC(=N)N)NC(=O)CCCCCNC(=O)[C@H](CCCNC(=N)N)NC(=O)[C@H](CCCNC(=N)N)NC(=O)CCCCCNC(=O)[C@H](CCCNC(=N)N)NC(=O)[C@H](CCCNC(=N)N)NC(=O)CCCCCNC(=O)[C@@H](N)CCCNC(=N)N)C(=O)NCCCCCC(=O)NCCC(=O)O,Escherichia coli,,ATCC 25922,"1 h, 37 °C, after 25% fetal bovine serum",> 192 µM
N=C(N)NCCC[C@H](NC(=O)CN)C(=O)N[C@@H](Cc1c[nH]c2ccccc12)C(=O)N[C@@H](CCCNC(=N)N)C(=O)N[C@@H](Cc1c[nH]c2ccccc12)C(=O)N[C@@H](Cc1c[nH]c2ccccc12)C(=O)N[C@@H](Cc1c[nH]c2ccccc12)C(=O)N[C@@H](CCCNC(=N)N)C(=O)N[C@@H](Cc1c[nH]c2ccccc12)C(=O)N[C@@H](CCCNC(=N)N)C(=O)N[C@@H](Cc1c[nH]c2ccccc12)C(N)=O,Candida albicans,broth microdilution,"CGMCC 2.209, RPMI 1640-MOPS","48 h, 30 °C, added: CaCl2 2 mM",8 µM
N=C(N)c1ccc(OCc2ccccc2COc2ccc(C(=N)N)cc2)cc1,Escherichia coli,,mcr-1,"20 h, compound alone",> 200 µg/mL
CC(C)CC1NC(=O)C(C(=O)NC(C(=O)NC2C(=O)N3C2SC(C)(C)C3C(=O)O)c2ccccc2)=C1O (stereo not drawn),Escherichia coli,broth microdilution,"isolate IU, CTX-M-14, TEM-1",no clavulanic acid,> 200 µg/mL
CC[C@H](C)[C@H](NC(=O)[C@H](C)NC(=O)[C@H](CCCCN)NC(=O)[C@H](CC(C)C)NC(=O)[C@H](C)NC(=O)[C@@H](NC(=O)[C@H](Cc1c[nH]cn1)NC(=O)[C@H](CC(C)C)NC(=O)[C@@H](NC(=O)[C@@H](NC(=O)[C@H](CCCCN)NC(=O)[C@H](C)NC(=O)[C@H](C)NC(=O)[C@H](CO)NC(=O)[C@H](CCCCN)NC(=O)[C@H](Cc1ccccc1)NC(=O)[C@@H](NC(=O)[C@H](CCCCN)NC(=O)[C@H](CC(C)C)NC(=O)[C@H](Cc1ccccc1)NC(=O)[C@H](CO)NC(=O)[C@H](CCCCN)NC(=O)[C@H](Cc1c[nH]c2ccccc12)NC(=O)[C@H](CCCCN)NC(C)=O)[C@@H](C)O)[C@@H](C)O)C(C)C)[C@@H](C)O)C(=O)N[C@@H](CO)C(=O)N[C@@H](CO)C(N)=O,Proteus,,,range over 20 strains,> 64 µg/mL
CC(C)(C)Oc1ccc(CC2NC(=O)C(C(=O)NC(C(=O)NC3C(=O)N4C3SC(C)(C)C4C(=O)O)c3ccccc3)=C2O)cc1 (stereo not drawn),Escherichia coli,broth microdilution,"isolate IU, CTX-M-14, TEM-1",no clavulanic acid,> 200 µg/mL
CC[C@H](C)[C@H](N)C(=O)N[C@@H](CCCNC(=N)N)C(=O)N[C@H](C(=O)N[C@@H](Cc1c[nH]c2ccccc12)C(=O)N[C@@H](Cc1c[nH]c2ccccc12)C(=O)N[C@@H](CCCCN)C(=O)N[C@H](C(=O)N[C@H](C(=O)N[C@@H](CCCNC(=N)N)C(=O)N[C@@H](CCCCN)C(=O)N[C@@H](Cc1c[nH]c2ccccc12)C(=O)N[C@@H](CCCCN)C(=O)N[C@@H](C)C(=O)N[C@H](C(=O)N[C@@H](Cc1c[nH]c2ccccc12)C(=O)N[C@@H](Cc1c[nH]cn1)C(N)=O)[C@@H](C)CC)C(C)C)[C@@H](C)CC)C(C)C,Listeria monocytogenes,broth dilution,KCTC 13064,,12.5 µM
CC(C)C1NC(=O)C(C(=O)NC(C(=O)NC2C(=O)N3C2SC(C)(C)C3C(=O)O)c2ccccc2)=C1O (stereo not drawn),Escherichia coli,broth microdilution,Keio mutant JW0146-2,"18 h, ferric hydroxamate uptake gene",25 µg/mL
Oc1c(Br)cc(Br)cc1-c1[nH]c(Br)c(Br)c1Br,Providencia alcalifaciens,,ATCC 9886,,32 µM
CC(C)[C@H](NC(=O)[C@H](CCCNC(=N)N)NC(=O)[C@H](Cc1c[nH]c2ccccc12)NC(=O)[C@H](CCCNC(=N)N)NC(=O)[C@H](Cc1c[nH]c2ccccc12)NC(=O)[C@H](Cc1c[nH]c2ccccc12)NC(=O)[C@H](Cc1c[nH]c2ccccc12)NC(=O)[C@H](CCCNC(=N)N)NC(=O)[C@H](Cc1c[nH]c2ccccc12)NC(=O)[C@@H](N)CCCNC(=N)N)C(N)=O,Candida albicans,broth microdilution,"CGMCC 2.209, RPMI 1640-MOPS","48 h, 30 °C, added: NH4Cl 6 µM",32 µM
CC1(C)SC2C(NC(=O)C(NC(=O)C3=C(O)CNC3=O)c3ccccc3)C(=O)N2C1C(=O)O (stereo not drawn),Escherichia coli,broth microdilution,Keio mutant JW0587-1,"18 h, enterobactin-related gene",50 µg/mL
CC(C)C[C@H](NC(=O)[C@H](CCCNC(=N)N)NC(=O)[C@H](Cc1c[nH]c2ccccc12)NC(=O)[C@H](CCCNC(=N)N)NC(=O)[C@H](Cc1c[nH]c2ccccc12)NC(=O)[C@H](Cc1c[nH]c2ccccc12)NC(=O)[C@H](Cc1c[nH]c2ccccc12)NC(=O)[C@H](CCCNC(=N)N)NC(=O)[C@H](Cc1c[nH]c2ccccc12)NC(=O)[C@H](CCCNC(=N)N)NC(=O)CN)C(N)=O,Candida albicans,broth microdilution,"CGMCC 2.209, RPMI 1640-MOPS","48 h, 30 °C, added: KCl 4.5 mM",32 µM
CC1(C)SC2C(NC(=O)C(NC(=O)C3=C(O)C4CCCN4C3=O)c3ccccc3)C(=O)N2C1C(=O)O (stereo not drawn),Escherichia coli,broth microdilution,"isolate IU 356 A, KPC-3, VIM-1, TEM",added: clavulanic acid 6 µg/mL,> 200 µg/mL
CC(C)C[C@H](NC(=O)[C@H](CCCNC(=N)N)NC(=O)[C@H](Cc1c[nH]c2ccccc12)NC(=O)[C@H](CCCNC(=N)N)NC(=O)[C@H](Cc1c[nH]c2ccccc12)NC(=O)[C@H](Cc1c[nH]c2ccccc12)NC(=O)[C@H](Cc1c[nH]c2ccccc12)NC(=O)[C@H](CCCNC(=N)N)NC(=O)[C@H](Cc1c[nH]c2ccccc12)NC(=O)[C@@H](N)CCCNC(=N)N)C(N)=O,Candida albicans,broth microdilution,"CGMCC 2.209, RPMI 1640-MOPS","48 h, 30 °C, added: KCl 4.5 mM",8 µM
CC1(C)SC2C(NC(=O)C(NC(=O)C3=C(O)C(Cc4ccc([N+](=O)[O-])cc4)NC3=O)c3ccccc3)C(=O)N2C1C(=O)O (stereo not drawn),Escherichia coli,broth microdilution,"isolate IU 356 A, KPC-3, VIM-1, TEM",added: clavulanic acid 6 µg/mL,> 200 µg/mL
N=C(N)NCCC[C@H](NC(=O)[C@H](Cc1c[nH]c2ccccc12)NC(=O)[C@H](CCCNC(=N)N)NC(=O)[C@H](Cc1c[nH]c2ccccc12)NC(=O)[C@H](Cc1c[nH]c2ccccc12)NC(=O)[C@H](Cc1c[nH]c2ccccc12)NC(=O)[C@H](CCCNC(=N)N)NC(=O)[C@H](Cc1c[nH]c2ccccc12)NC(=O)[C@H](CCCNC(=N)N)NC(=O)CN)C(N)=O,Candida albicans,broth microdilution,"CGMCC 2.209, RPMI 1640-MOPS","48 h, 30 °C, added: CaCl2 2 mM",16 µM
CC[C@H](C)[C@H](NC(=O)[C@H](CCCCN)NC(=O)[C@H](CCCCN)NC(=O)[C@H](Cc1ccccc1)NC(=O)[C@@H](NC(=O)[C@@H](NC(=O)[C@H](CCCNC(=N)N)NC(=O)[C@H](Cc1ccccc1)NC(=O)[C@@H](NC(=O)[C@H](CCCCN)NC(=O)[C@H](CCCCN)NC(=O)[C@@H](N)CCSC)[C@@H](C)CC)C(C)C)[C@@H](C)CC)C(=O)N[C@@H](CC(C)C)C(=O)N[C@@H](CCCCN)C(=O)N[C@@H](CCCNC(=N)N)C(=O)N[C@@H](CC(C)C)C(=O)N[C@H](C(=O)N[C@H](C(=O)O)C(C)C)[C@@H](C)CC,Staphylococcus aureus,broth microdilution,ATCC 25923,added: 1 mM MgSO4,4 µg/mL

# Repeated from above:
SMILES,organism,test,test system,conditions,MIC
Oc1c(Br)cc(Br)cc1-c1[nH]c(Br)c(Br)c1Br,Providencia alcalifaciens,,ATCC 9886,,32 µM
CC(C)C[C@H](NC(=O)[C@H](CCCNC(=N)N)NC(=O)[C@H](Cc1c[nH]c2ccccc12)NC(=O)[C@H](CCCNC(=N)N)NC(=O)[C@H](Cc1c[nH]c2ccccc12)NC(=O)[C@H](Cc1c[nH]c2ccccc12)NC(=O)[C@H](Cc1c[nH]c2ccccc12)NC(=O)[C@H](CCCNC(=N)N)NC(=O)[C@H](Cc1c[nH]c2ccccc12)NC(=O)[C@@H](N)CCCNC(=N)N)C(N)=O,Candida albicans,broth microdilution,"CGMCC 2.209, RPMI 1640-MOPS","48 h, 30 °C, added: KCl 4.5 mM",8 µM
